Measured values pooled from the literature.
Each line is one published result; not all experiments were run side by side. ± marks the error that the study gave.

CC(Cc1c(F)cccc1F)NS(=O)(=O)c1ccoc1C(=O)O (stereo not drawn)  DLS scattered light intensity (colloidal aggregate formation, dynamic light scattering; 50 mM potassium phosphate buffer; 200 µM, pH 7.0, 1% DMSO; higher = more aggregation): 5.84e+06 counts/s
N#Cc1ccc2c(c1)[C@H]1CCCN(C(=O)c3ccc4[nH]cnc4c3)[C@H]1C2  pre-dose plasma concentration (human, plasma; 20 mg once daily, day 28): 479 nmol/L
CC[C@H](C)[C@H](NC(=O)[C@H](Cc1ccccc1)NC(=O)[C@H](CCC(=O)O)NC(=O)[C@H](CCCCNC(=O)COCCOCCNC(=O)COCCOCCNC(=O)CC[C@H](NC(=O)CCCCCCCCCCCCCCCCC(=O)O)C(=O)O)NC(=O)[C@H](C)NC(=O)[C@H](C)NC(=O)[C@H](CCC(N)=O)NC(=O)CNC(=O)[C@H](CCC(=O)O)NC(=O)[C@H](CC(C)C)NC(=O)[C@H](Cc1ccc(O)cc1)NC(=O)[C@H](CO)NC(=O)[C@H](CO)NC(=O)[C@@H](NC(=O)[C@H](CC(=O)O)NC(=O)[C@H](CO)NC(=O)[C@@H](NC(=O)[C@H](Cc1ccccc1)NC(=O)[C@@H](NC(=O)CNC(=O)[C@H](CCC(=O)O)NC(=O)C(C)(C)NC(=O)[C@@H](N)Cc1cnc[nH]1)[C@@H](C)O)[C@@H](C)O)C(C)C)C(=O)N[C@@H](C)C(=O)N[C@@H](Cc1c[nH]c2ccccc12)C(=O)N[C@@H](CC(C)C)C(=O)N[C@H](C(=O)N[C@@H](CCCNC(=N)N)C(=O)NCC(=O)N[C@@H](CCCNC(=N)N)C(=O)NCC(=O)O)C(C)C  placebo-subtracted change in QTcI (QT interval corrected for heart rate, 12-lead Holter ECG; healthy human subjects; subcutaneous, 1.5 mg once weekly, 42 h post-dose, steady state; relative to: placebo, time-matched baseline): -7.4 ms
CC(C(=O)NCC(=O)NCC(CNC(=O)CNC(=O)C(C)N1CCN(CC(=O)[O-])CCN(CC(=O)[O-])CCN(CC(=O)[O-])CC1)(CNC(=O)CNC(=O)C(C)N1CCN(CC(=O)[O-])CCN(CC(=O)[O-])CCN(CC(=O)[O-])CC1)CNC(=O)CNC(=O)C(C)N1CCN(CC(=O)[O-])CCN(CC(=O)[O-])CCN(CC(=O)[O-])CC1)N1CCN(CC(=O)[O-])CCN(CC(=O)[O-])CCN(CC(=O)[O-])CC1.[Gd+3].[Gd+3].[Gd+3].[Gd+3] (stereo not drawn)  lanthanide tissue concentration (cynomolgus monkey, skin; dose not given, day 5): 0.34 ± 0.12 nmol/g
Cn1ncc(S(=O)(=O)NC2(c3cccc(OC(F)(F)F)c3)CC2)c1C(=O)O  DLS scattered light intensity (colloidal aggregate formation, dynamic light scattering; 50 mM potassium phosphate buffer; 200 µM, pH 7.0, 1% DMSO; higher = more aggregation): 373000 counts/s
Nc1ncnc2c1ncn2[C@H]1C[C@@H]2OP(=O)(O)OC[C@H]3O[C@@H](n4cnc5c(N)ncnc54)C[C@@H]3OP(=O)(O)OC[C@H]2O1  BUN (non-tumor-bearing mice, serum; intravenous, 1 mg/kg, toxicity study): 8.77 ± 0.74 mmol/L
C[C@@H](Nc1cc(F)cc(F)c1)c1cc(C(=O)N(C)C)cc2c(=O)cc(N3CCOCC3)oc12  patients discontinuing for AE (refers to: Vomiting; advanced solid tumour patients; oral, dose not given, dose expansion): 0%
NC(=O)c1cc(Oc2ccc(NC(=O)Nc3ccc(Cl)c(C(F)(F)F)c3)c(F)c2)cc[n+]1[O-]  metabolite to parent AUC ratio (Oatp1b2 knockout mice, plasma; oral, molecular weight corrected, together with: regorafenib single dose): 0.51%
c1ccc(-c2nc(N3CCC(c4ccccn4)C3)c3ccccc3n2)nc1 (stereo not drawn)  volume of distribution at steady state (female Balb/c mice, plasma; intravenous, 2 mg/kg, together with: ABT 2 h prior): 0.9 L/kg
CNCc1ccc(-c2[nH]c3cc(F)cc4c3c2CCNC4=O)cc1  asthenia/fatigue incidence (patients; oral, 600 mg twice daily, grade 1): 19.2%
CC(=O)Nc1c(F)ccc(NS(=O)(=O)c2cccc(Cl)c2O)c1F  DLS scattered light intensity (colloidal aggregate formation, dynamic light scattering; 50 mM potassium phosphate buffer; 200 µM, pH 7.0, 1% DMSO; higher = more aggregation): 739000 counts/s
Cc1nc(-c2ccc(OCC(C)C)c(C#N)c2)sc1C(=O)O  geometric mean ratio Cmax (human, plasma; oral, 40 mg, together with: verinurad 5 mg; relative to: test over reference): 76.1
CCc1cc(C(=O)NC)c2nccc(N3CCc4c(cc(Cn5ccnc5)cc4-c4cn(C)nc4C(F)(F)F)C3=O)c2c1  serum HDL change (Sprague Dawley rats; oral, 50 mg/kg once daily, 7 days; relative to: vehicle): -1.4%
Cn1ncc(C(=O)O)c1S(=O)(=O)NC1CCOc2ccccc21 (stereo not drawn)  DLS scattered light intensity (colloidal aggregate formation, dynamic light scattering; 50 mM potassium phosphate buffer; 200 µM, pH 7.0, 1% DMSO; higher = more aggregation): 561000 counts/s
CCN1CCN(Cc2ccc(Nc3ncc(F)c(-c4cc(F)c5nc6n(c5c4)[C@H](C)CCC6)n3)nc2)CC1  Tmax (human, plasma; 500 mg single dose, median): 17 h
CC#CC(=O)N1CC[C@@H](n2c(=O)n(-c3ccc(Oc4ccccc4)cc3)c3c(N)ncnc32)C1  Tmax, median (human, fasting, plasma; oral, 160 mg once daily, cycle 1 day 28): 3 h
O=C(O)c1occc1S(=O)(=O)NCC1CC(c2ccccc2)C1 (stereo not drawn)  DLS scattered light intensity (colloidal aggregate formation, dynamic light scattering; 50 mM potassium phosphate buffer; 200 µM, pH 7.0, 1% DMSO; higher = more aggregation): 445000 counts/s
C[C@@H](O)[C@H]1C(=O)N2C(C(=O)O)=C(S[C@@H]3CN[C@H](C(=O)N(C)C)C3)[C@H](C)[C@H]12  deviation from nominal concentration (human whole blood; concentration not given, 24 h, 4 °C): -1.5%
CCOc1c([C@H](C)n2nc(C)c3c(N)ncnc32)cc(Cl)c(F)c1[C@@H]1CNC(=O)C1  observations ΔQTcF >30 ≤60 ms (ECG; previously treated B-cell malignancy patients; oral, 10 mg once daily, baseline QTcF ≤450 ms): 0%
Cn1cnc2c(F)c(Nc3ccc(Br)cc3Cl)c(C(=O)NOCCO)cc21  Vmax of absorption (population PK model; human, plasma; oral, nonlinear absorption model, fasted): 310000 nmol/h
COc1ccnc(C(=O)NC(CO)C(=O)O)c1O (racemic)  Freundlich coefficient KF (soil adsorption; tested soils; geometric mean): 7.75 mL/g
NS(=O)(=O)c1cc(C(=O)O)c(NCc2ccco2)cc1Cl  subjects with adverse event (refers to: respiratory, thoracic, mediastinal disorders; healthy men; oral, 8 days, treatment-emergent, crossover trial): 0%
C=CC(=O)NC1CCN(c2ncc3ncnc(Nc4ccc(Oc5ccc6c(c5)ncn6C)c(C)c4)c3n2)CC1  volume of distribution (healthy male volunteers, plasma; intravenous, 100 µg): 1.93 L/kg
Nc1nc2c(nc([N+](=O)[O-])n2[C@@H]2O[C@H](CO)[C@@H](O)[C@H]2O)c(=O)[nH]1  nucleoside remaining fraction (depurination, RP-HPLC; citrate-phosphate buffer 0.5 mM; 255 min, pH 2, 37 °C): 0.553
CCCOc1ccc([C@H]2CNC(=O)N2c2ccc3[nH]cnc3c2)cc1  AUC(0-tlast) (human volunteers fasted, plasma; oral capsule, 200 mg single dose, crossover, geometric mean): 2100 ng·h/mL
O=C(O)CCC(=O)O.[2H]C([2H])([2H])Oc1cc(C)c2[nH]ccc2c1CN1CC[C@@H](C2CC2)C[C@H]1c1ccc(C(=O)O)cc1  subjects with any TEAE (multiple ascending dose; healthy Chinese subjects; 125 mg twice daily): 75%
CCO[C@H]1CCN(Cc2c(OC)cc(C)c3[nH]ccc23)[C@H](c2ccc(C(=O)O)cc2)C1  incidence of GGT increase (PNH patients, active haemolysis; oral, 50 mg, 4 weeks, treatment): 0%
CCO[C@H]1CCN(Cc2c(OC)cc(C)c3[nH]ccc23)[C@H](c2ccc(C(=O)O)cc2)C1  unbound Cmax (human healthy controls, plasma; oral, 200 mg single dose, geometric mean): 711 ng/mL
CC(C)n1c(Nc2cccnc2)nc2cnc(Nc3ccc(N4CCN(C)CC4)cc3)nc21  subjects with adverse event (refers to: creatine phosphokinase increased; healthy male subjects; oral, 100 mg, study, together with: gemfibrozil): 14.3%
CNC(=O)c1ccc(-c2cnc3ncc(Cc4ccc5ncccc5c4)n3n2)cc1F  adverse event incidence (phase 1 clinical trial, refers to: peripheral edema; all expansion cohorts; oral, 600 mg twice daily, grade 3 or 4): 0%
C[C@H]1CN(C(=O)CC#N)[C@]12CCN(c1ncnc3[nH]ccc13)C2  subjects with Headache (healthy human; oral, dose not given): 6.3%
CCCCOc1ccc([C@H]2CC[C@H](CCC)CC2)c(F)c1F  concentration (refers to: compound; human pregnant women, male fetuses, maternal serum; dose not given, paired maternal-cord samples, mean): 6.1 ng/mL
CC(C)(C(=O)N1CCOc2c(C#N)cncc2C1)C(F)F  subjects with adverse event (refers to: Cardiac disorders; human; oral, 15 mg twice daily, 14 days, multiple ascending dose): 0%
CN(C)c1ccc2c(c1)c(=O)n(-c1ccc(C[C@H](NC(=O)c3c(Cl)cccc3Cl)C(=O)O)cc1)c(=O)n2C  active intrinsic uptake clearance (cynomolgus monkey, hepatocyte suspension; dose not given, scaled in vitro unbound): 268 mL/min/kg
Cc1cc(Nc2ncnc3ccc(NC4=NC(C)(C)CO4)cc23)ccc1Oc1ccn2ncnc2c1  Tmax, median (human, plasma; oral, 300 mg, day 1, single dose alone): 2 h
COc1cc(/C=N\NC(=O)c2ccc(Br)cc2)ccc1OC(=O)c1cccs1  HC50 (haemolysis; sheep erythrocytes; 1 h, pH 7.5): > 128 µg/mL
O=C(Nc1nc2cccc(-c3ccc(CN4CCS(=O)(=O)CC4)cc3)n2n1)C1CC1  treatment-emergent adverse events (refers to: blood triglycerides increased; rheumatoid arthritis patients; oral, 200 mg once daily, 4 weeks, any relatedness): 0%
O=C(COC(=O)c1n[nH]c2ccccc12)Nc1ccc(N2CCCCC2)cc1  HC50 (haemolysis; sheep erythrocytes; 1 h, pH 7.5): > 128 µg/mL
COc1ccc2[nH]c([S+]([O-])Cc3ncc(C)c(OC)c3C)nc2c1 (stereo not drawn)  Cmax (healthy Chinese volunteers, plasma; oral, 20 mg, enteric-coated tablets, CYP2C19 intermediate metabolizers): 521 ± 311 ng/mL
COc1ncc(-c2nc3c(n2C(C)C)[C@H](c2ccc(Cl)cc2)N(c2cc(Cl)cn(C)c2=O)C3=O)c(OC)n1  AUC(0-last) (LC-MS/MS, noncompartmental; human, plasma; oral, 120 mg, cycle 2 day 1, high-dose, geometric mean): 11900 ng·h/mL
COc1cccc(OC)c1-c1cc(C(=O)NC2(C(=O)O)C3CC4CC(C3)CC2C4)nn1-c1ccc(C(=O)N(C)CCCN(C)CCCN(C)C(=O)CN2CCN(CC(=O)[O-])CCN(CC(=O)[O-])CCN(CC(=O)[O-])CC2)cc1C(C)C.[177Lu+3] (stereo not drawn)  tumour-to-brain ratio (mouse, HT-29 xenograft; 4 h post injection, biodistribution; relative to: tumour over brain uptake): 62.2
Cl.[2H]C([2H])([2H])CC(=O)c1cnc(NC(=O)C2CC2)cc1Nc1cccc(-c2ncn(C([2H])([2H])[2H])n2)c1OC  Ctrough (human, fasted, multiple dose; oral, 10 mg once daily, tablet, day 14, geometric mean): 11.8 ng/mL
NC(=O)N1c2ccccc2C=Cc2ccccc21  adverse events incidence (refers to: initial insomnia; human male; oral, dose not given, CTCAE on-treatment AEs): 0%
Cc1cc(Nc2cc3ncccc3c(N[C@@H]3C[C@H]4CC[C@@H](C3)N4CCC#N)n2)n[nH]1  Ctrough (human; 80 mg, day 14, geometric mean): 0.0814 ng/mL
COc1ccc(F)cc1C(=O)NCc1ccc(-c2nn([C@@H](C)C(F)(F)F)c(N)c2C(N)=O)cc1  unchanged drug excreted (healthy men, feces; intravenous, 22 µg; relative to: dose): 14.4%
Cc1ccc([C@@H]2O[C@H](CO)[C@@H](O)[C@H](O)[C@H]2O)cc1Cc1ccc(-c2ccc(F)cc2)s1  urinary calcium excretion change (Japanese type 2 diabetes patients; 25 mg, day 3, 24 h urine collection; relative to: baseline): -33 mg
Cc1cc(Nc2ccc(S(F)(F)(F)(F)F)cc2)n2nc(C(C)(F)F)nc2n1  adverse event Diarrhoea (Plasmodium falciparum malaria patients; oral, 400 mg): 23.1%
Cc1nc(-c2ccc(OCC(C)C)c(C#N)c2)sc1C(=O)O  subjects with grade 2 AEs (healthy Chinese subjects, fasted; oral, 40 mg single dose): 0%
CCNCCCNC/C=C\CNCCCNCC  volume of distribution (LC-MS/MS; cancer patients, plasma; intravenous infusion, 200 mg, 60 min infusion, median, cycle 1): 2.14 L/kg
O=C(COc1ccc(Cl)cc1)NC12CC(c3nnc([C@H]4C[C@@H](OC(F)(F)F)C4)o3)(C1)C2  participants with headache (human both sexes; oral, 45 mg once daily, 14 days): 66.7%
COc1ccc([C@@H](O)c2cc(-c3ncnc4cc(N5CCOCC5)ccc34)c(F)cc2Cl)nn1  AUC(0-12) (human, plasma; oral, 250 mg twice daily, single dose, geometric mean): 7550 ng·h/mL
CCOC(=O)C(CC(C)CC)NS(=O)(=O)c1cccc(Cl)c1O (stereo not drawn)  DLS scattered light intensity (colloidal aggregate formation, dynamic light scattering; 50 mM potassium phosphate buffer; 200 µM, pH 7.0, 1% DMSO; higher = more aggregation): 1.12e+07 counts/s
CNCCOC12CC3(C)CC(C)(CC(Cn4ncc(-c5ccc(N6CCc7cccc(C(=O)Nc8nc9ccccc9s8)c7C6)nc5C(=O)O)c4C)(C3)C1)C2  PR interval change (beagle dog, male, anaesthetised; intravenous bolus, 0.03 mg/kg, 10 min; relative to: baseline): -6 ms
CC[C@@H]([C@H](C)O)n1ncn(-c2ccc(N3CCN(c4ccc(OC[C@@H]5CO[C@@](Cn6cncn6)(c6ccc(F)cc6F)C5)cc4)CC3)cc2)c1=O  stability relative error (rat plasma; 1600 ng/mL, three freeze-thaw cycles; relative to: nominal concentration): -10.3%
